Published values from different studies.
Every numbered part comes from another study and shows a few of its results, in no order. Substitutions count along the parent as printed.

Set 1 — technique: protein-binding microarray; molecule type: double-stranded DNA, one strand shown; matrix: in vitro; concentration: 940 nM top; notes: 60-bp whole probe; added: salmon DNA 0.4 mg/ml; baseline: random background probes; reading: higher = stronger binding; shared flanks, not repeated: GCCTAGCAC … GTCTTGATTCGCTTGACGCTGCTG
Target: Interferon regulatory factor 5, full length, phosphomimetic (IRF5, Homo sapiens, UniProt Q13568-2, residues 1-514, S451D/S453D/S456D/S462D)
Under “fitted relative affinity”, `GACGGTTTCGGTTTCGGCACGTGCTAG` is recorded as 13.3 z-score.
`TTAGATTTCAGGTATCGATTAGTGCTA` — result for “fitted relative affinity”: 3.32 z-score.
For `GACGGTTTCTTACTGCTGACGTGCTAG`, “fitted relative affinity” read 1.55 z-score.
`TCTCTTTTTGCTTTCTTTTAGTGCTAG` — result for “fitted relative affinity”: 4.6 z-score.
Under “fitted relative affinity”, `TTAGGCATCGGGACTGGGTTAGTGCTA` is recorded as -0.584 z-score.
For `GACGATCTCAGTATCGAGCCGTGCTAG`, “fitted relative affinity” read 1.46 z-score.
`GTCGGTTTCGACACTGGGGACGTGCTA` — result for “fitted relative affinity”: 8.64 z-score.
`GACGGACTGGGTATCGGCACGTGCTAG`: “fitted relative affinity” 0.998 z-score.
`GACGGTTACGACACTGGGGACGTGCTA`: “fitted relative affinity” -0.27 z-score.
For `TTAGGTCTCGGTCTCGTTTAGTGCTAG`, “fitted relative affinity” read 4.83 z-score.
`TTAGGTCTCGGTATCGCTTAGTGCTAG` — result for “fitted relative affinity”: 5.69 z-score.
`GGCGATTTCAGTTTCGAGACGTGCTAG` — result for “fitted relative affinity”: 5.42 z-score.
`TTAGGTTTACTTTTCCTTTAGTGCTAG` — result for “fitted relative affinity”: 0.395 z-score.
`TAATATATATATTGTTAGTGTGTGCTA`: “fitted relative affinity” 0.134 z-score.
For `TATATATCCATTATAGATGAGTGCTAG`, “fitted relative affinity” read 0.0116 z-score.
Under “fitted relative affinity”, `GACGGTCTCGGTATCGTGACGTGCTAG` is recorded as 3.88 z-score.
`TTAGGTTTCGGTATAGGTTAGTGCTAG`: “fitted relative affinity” 15.1 z-score.
`CCAGGTTGGGAGGGGTAGGGGTGCTAG` — result for “fitted relative affinity”: 1.11 z-score.
Under “fitted relative affinity”, `GGCGGACTGGACACTGGGGACGTGCTA` is recorded as -0.842 z-score.

Set 2 — technique: DHFR PCA, deep sequencing; matrix: yeast; added: (+)-ABA 58 µM; baseline: wild-type fitted maximum; reading: higher = stronger binding
Target: ABI1, truncated, D143A, DHFR fusion (Arabidopsis thaliana)
Notes: methotrexate growth selection, single substitutions
Starting sequence: PYL1, truncated, DHFR fusion (Arabidopsis thaliana); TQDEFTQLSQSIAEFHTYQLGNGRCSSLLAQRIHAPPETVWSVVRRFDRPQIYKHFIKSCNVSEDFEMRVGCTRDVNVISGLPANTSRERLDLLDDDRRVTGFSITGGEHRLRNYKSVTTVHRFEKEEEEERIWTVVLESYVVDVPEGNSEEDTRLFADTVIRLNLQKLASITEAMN; partner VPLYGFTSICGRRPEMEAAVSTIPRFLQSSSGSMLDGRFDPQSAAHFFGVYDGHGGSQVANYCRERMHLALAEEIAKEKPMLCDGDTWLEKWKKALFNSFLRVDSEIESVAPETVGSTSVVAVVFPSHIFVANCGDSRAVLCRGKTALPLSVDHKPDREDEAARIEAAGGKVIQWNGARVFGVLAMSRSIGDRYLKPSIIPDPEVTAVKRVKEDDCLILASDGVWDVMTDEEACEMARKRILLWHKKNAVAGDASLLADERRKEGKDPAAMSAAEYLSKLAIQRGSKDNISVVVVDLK
`T86S` — result for “relative binding score”: 83.2%.
`A175P`: “relative binding score” 72.3%.
For `H110Q`, “relative binding score” read 21.8%.
`P50H` — result for “relative binding score”: -5.06%.
`N165K`: “relative binding score” 18.8%.
Under “relative binding score”, `R74C` is recorded as -3.42%.
Under “relative binding score”, `R113Q` is recorded as 102%.
For `E4V`, “relative binding score” read 92.6%.
`P37W` — result for “relative binding score”: 36%.
For `Y53Q`, “relative binding score” read -22.9%.
For `V100T`, “relative binding score” read 60.1%.
`V137D`: “relative binding score” 0.846%.
Under “relative binding score”, `Q10G` is recorded as 90.3%.
`E130C`: “relative binding score” 90.6%.
`T119H` — result for “relative binding score”: -5.24%.
For `P37V`, “relative binding score” read 82.2%.
`Q51R`: “relative binding score” 27.9%.
`D75K` — result for “relative binding score”: 85.9%.
`T39C` — result for “relative binding score”: 83.3%.
`V70E`: “relative binding score” 74.1%.
For `W134R`, “relative binding score” read 70.8%.
`V43Y` — result for “relative binding score”: 69.7%.
Under “relative binding score”, `K54E` is recorded as 0.494%.
Under “relative binding score”, `A13F` is recorded as 74.6%.
For `G108I`, “relative binding score” read -14.4%.

Set 3 — technique: RNA Bind-n-Seq; molecule type: RNA; matrix: in vitro; concentration: not given; baseline: input RNA pool; reading: higher = stronger binding
Target: RING finger protein unkempt homolog, zinc fingers 1-6, GST-SBP tag (UNK, Homo sapiens, UniProt Q9C0B0, residues 30-357)
Notes: RNA with constant flanks, human and mouse sites, ends assumed
Residues (chain): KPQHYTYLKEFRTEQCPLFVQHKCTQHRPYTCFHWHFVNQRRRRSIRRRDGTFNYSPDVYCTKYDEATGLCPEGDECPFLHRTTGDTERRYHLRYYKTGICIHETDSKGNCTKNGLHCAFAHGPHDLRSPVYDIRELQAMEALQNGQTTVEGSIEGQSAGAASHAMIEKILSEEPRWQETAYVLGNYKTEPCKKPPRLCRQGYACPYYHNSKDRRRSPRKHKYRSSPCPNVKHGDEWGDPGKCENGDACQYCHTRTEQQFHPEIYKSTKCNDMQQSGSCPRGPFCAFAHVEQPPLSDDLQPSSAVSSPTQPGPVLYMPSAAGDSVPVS
`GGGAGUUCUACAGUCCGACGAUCAAAGAGCAUUUACAAAUAAAGCAAAUUUGCUUUAUUUUUUAAAACUUUUUUAAAAAAUGCAAUUUCCUUAAUUACAUUAAAAAUUUAACUAUAAAAUUUGGUAACCACAUUGUUUUUCUUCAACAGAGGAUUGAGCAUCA` gave a bound/input enrichment of 2.13 ratio.
`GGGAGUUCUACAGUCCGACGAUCGUUCUGGCUGAUAGAUUGUCGACAGAUCCAGGAAUCCGUUACUUUUGCAUCACAAGUAUACAGAGAAAUUAUCUGCGUACCUUAUAUGGCCAAAUUUGUAGUGUUUGCCAAAUCACAUGACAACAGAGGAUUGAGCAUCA` has a bound/input enrichment of 0.187 ratio.
`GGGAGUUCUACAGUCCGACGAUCAGAAAAUUGUGCUACUGUGUGUGCGUGUGCGUGCGUGUGUGUAGUGCUAGGAGUCCACAGUAGGUCUCUGUCAAGCCGAUGUCGUGAUGAGGGCUUUUCUGAUACUGACCCAGAAGCCACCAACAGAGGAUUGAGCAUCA` has a bound/input enrichment of 0.105 ratio.
`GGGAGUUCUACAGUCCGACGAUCUAUGGUUAUGAAAAGCCAGAGGAACGCUGGCUCCCUAUCCACACUGUGGAAACCAUCAUGAUUAGUGUCAUUUCUAUGCUGGCAGACCCUAAUGGAGACUCACCUGCUAAUGUUGAUGCUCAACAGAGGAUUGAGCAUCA` gave a bound/input enrichment of 0.783 ratio.
With `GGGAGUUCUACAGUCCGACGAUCAAAGUUUUCUUUACAGAGAAAUUUGGAUUUUCUUCCCAGGCAGCAAGUGCAAUUAACAGUGUUGUAUAUGUCAUAUCAGCUCCCAUGUCCCCGGUGUUUGGGCUCCUGGUGGAUAAAACACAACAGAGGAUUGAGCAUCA` the bound/input enrichment was 0.213 ratio.
With `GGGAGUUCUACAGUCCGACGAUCGCUGAGUCUUCAGGGAAAUGGAAUGGUCUACAUACUCCUGUCAGUGUGCAGUCGAGACUUAACCUGAGUAUAGAGGUCCCGUCACCUUCCCAGCUGGAUCAGUCUGUUUUAGAAGCACUUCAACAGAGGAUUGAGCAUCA` the bound/input enrichment was 0.0968 ratio.
`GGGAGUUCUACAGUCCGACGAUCCUUACAAAUAAGUACUUAAAACAGAGCUUAAUGGGUAAAGCAACAGCUGUGUAAUCACAAACUAGAUGCAGAGGAGGUCUUGCCAGCACUCCAAAAUCUCUGUGUGUCCCCUCUUGACACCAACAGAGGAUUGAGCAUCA` has a bound/input enrichment of 0.171 ratio.
`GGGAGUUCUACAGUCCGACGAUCACGCAGGAAGAAGUGUCUUCAGAAGAUGAAGAUGAAGAGAUGCCUGAGGAUACAGAAGACCUAGAUCACUAUGAAAUGAAAGAGGAAGAGCCAGCCGAGGGCAAGAAGUCUGAAGAUGAUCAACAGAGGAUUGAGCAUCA` has a bound/input enrichment of 0.856 ratio.

Set 4 — target: UBE2Q1 UBC core domain (UniProt Q7Z7E8); technique: yeast two-hybrid; matrix: yeast; notes: mostly zero background; baseline: not given; reading: higher = stronger interaction
B1: RNF135 RING domain (UniProt Q8IUD6); chain PVWLAEDDLGCIICQGLLDWPATLPCGHSFCRHCLEALWGARDARRWACPTCRQGAAQQPHLR
B2: DTX1 RING domain (UniProt Q86Y01); chain QKVKNPPDEDCTICMERLVTASGYEGVLRHKGVRPELVGRLGRCGHMYHLLCLVAMYSNGNKDGSLQCPTCKAIYGEKTGTQ
B3: TRIM48 RING domain (UniProt Q8IWZ4); chain ISQVFQRELTCPICMNYFIDPVTIDCGHSFCRPCFYLNWQDIPILTQCFECIKTIQQRNLKT
Construct (chain): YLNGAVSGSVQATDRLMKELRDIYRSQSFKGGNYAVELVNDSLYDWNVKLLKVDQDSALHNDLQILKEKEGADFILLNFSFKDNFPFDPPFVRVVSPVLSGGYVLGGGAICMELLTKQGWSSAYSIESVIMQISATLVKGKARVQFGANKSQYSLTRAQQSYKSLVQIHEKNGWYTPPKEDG
`B1 (RNF135 RING domain)`: “lacZ reporter activity” 0.
For `NTAPSLTVPECAICLQTCVHPVSLPCKHVFCYLCVKGASWLGKRCALCRQEIPEDFLDK (RNF146 RING domain (UniProt Q9NTX7))`, “lacZ reporter activity” read 0.
For `B2 (DTX1 RING domain)`, “lacZ reporter activity” read 0.
For `B3 (TRIM48 RING domain)`, “lacZ reporter activity” read 0.
Under “lacZ reporter activity”, `MDDQGCPRCKTTKYRNPSLKLMVNVCGHTLCESCVDLLFVRGAGNCPECGTPLRKSNFRV (MNAT1 RING domain (UniProt P51948))` is recorded as 0.
`KITELNPHLMCVLCGGYFIDATTIIECLHSFCKTCIVRYLETSKYCPICDVQVHKTRPLL (BMI1 RING domain (UniProt P35226))` — result for “lacZ reporter activity”: 0.
`ALDRLEKLLRCSRCTNILREPVCLGGCEHIFCSNCVSDCIGTGCPVCYTPAWIQDLKI (BARD1 RING domain (UniProt Q99728))` — result for “lacZ reporter activity”: 0.

For quick reference, copied from above (set 1):
`GACGGTTACGACACTGGGGACGTGCTA`: “fitted relative affinity” -0.27 z-score.
For `TTAGGTCTCGGTCTCGTTTAGTGCTAG`, “fitted relative affinity” read 4.83 z-score.
`TTAGGTCTCGGTATCGCTTAGTGCTAG` — result for “fitted relative affinity”: 5.69 z-score.
`GGCGATTTCAGTTTCGAGACGTGCTAG` — result for “fitted relative affinity”: 5.42 z-score.
`TTAGGTTTACTTTTCCTTTAGTGCTAG` — result for “fitted relative affinity”: 0.395 z-score.
`TAATATATATATTGTTAGTGTGTGCTA`: “fitted relative affinity” 0.134 z-score.
